Experimental data gathered from unrelated publications.
Every numbered part comes from another study and shows a few of its results, in no order. Positions count from the first letter of the parent shown.

Series 1 — method: Sort-seq; item: YFP reporter; matrix: E. coli; notes: PhoQ-PhoP variant library; added: 10 µM Mg2+; reference: high Mg2+ state; direction: higher = stronger signaling
Molecule: PhoQ, residues 284 288 289 292 302 303 NLMGRA
| target | fold induction |
| --- | --- |
| PhoP, residues 12 14 15 18 19 VGHWL (Escherichia coli, UniProt P23836) | 3.62 |
| PhoP, residues 12 14 15 18 19 NFFVT (Escherichia coli, UniProt P23836) | 15.4 |
| PhoP, residues 12 14 15 18 19 LHHYF (Escherichia coli, UniProt P23836) | 7.88 |
| PhoP, residues 12 14 15 18 19 TPWTL (Escherichia coli, UniProt P23836) | 2.13 |

Series 2 — target: ATF1, bZIP domain (human); method: DHFR protein complementation; matrix: yeast; reference: wild-type JUN-FOS pair; direction: higher = stronger binding
Notes: single substitutions, most at no-binding floor
Starting sequence: JUN, bZIP domain (human); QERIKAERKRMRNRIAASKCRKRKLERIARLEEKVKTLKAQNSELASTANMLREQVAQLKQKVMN; partner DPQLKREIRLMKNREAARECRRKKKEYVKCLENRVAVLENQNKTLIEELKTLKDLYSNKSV
| Substitution | binding fitness [natural log] |
| --- | --- |
| E54A | -1.46 |
| A46W | -1.48 |
| T37I | -1.55 |
| T48R | -1.48 |
| A29Q | -1.33 |
| M51F | -1.36 |
| T48Q | -1.44 |
| M51Q | -1.51 |
| A57T | -1.55 |
| S43G | -1.53 |
| R30F | -1.27 |
| K39W | -1.51 |
| S43M | -1.49 |
| K39V | -1.46 |
| K36S | -1.6 |
| K34N | -1.38 |
| E33I | -1.42 |
| Q41T | -1.49 |
| N42V | -1.49 |
| V56K | -1.51 |
| K34R | -1.47 |

Series 3 — target: CCNE2, cyclin fold, Cln2 fusion (human); method: yeast growth competition, sequencing; matrix: yeast; notes: strong parent motif; reference: not given; direction: higher = stronger binding
Starting sequence: SCAPER docking peptide (human); SNARRSLNFGGST
| Substitution | normalised enrichment score |
| --- | --- |
| SNARRSLNFNGST [G10N] | 0.92 |
| SNARRILNFGGST [S6I] | 3.37 |
| SNARRQLNFGGST [S6Q] | 4.74 |
| SNARRSLNGGGST [F9G] | -0.505 |
| HNARRSLNFGGST [S1H] | 0.698 |
| SNARRSFNFGGST [L7F] | -0.00957 |
| SNARRSLEFGGST [N8E] | 0.694 |
| SNARRSLNFGGSR [T13R] | 1.43 |
| SNARRSLNEGGST [F9E] | -0.197 |
| SNAFRSLNFGGST [R4F] | 0.0245 |
| TNARRSLNFGGST [S1T] | 1.71 |
| SNARWSLNFGGST [R5W] | -0.00779 |
| SNARYSLNFGGST [R5Y] | 0.192 |
| SNARRSLNFGGPT [S12P] | 2.11 |
| SNARRSLNFGGSH [T13H] | 0.985 |
| SNARRSLNFGDST [G11D] | 1.34 |
| SNARRSLNMGGST [F9M] | 0.983 |

Series 4 — method: protein binding microarray; form: double-stranded DNA, one strand shown; matrix: in vitro; concentration: not given; reference: not given; direction: higher = stronger binding
Target: Histone acetyltransferase KAT6A, both winged helices, GST fusion (KAT6A, Homo sapiens, UniProt Q92794, residues 1-181)
Notes: 8-mer, flanks averaged, mean of 2 arrays, mostly near background
Construct (chain): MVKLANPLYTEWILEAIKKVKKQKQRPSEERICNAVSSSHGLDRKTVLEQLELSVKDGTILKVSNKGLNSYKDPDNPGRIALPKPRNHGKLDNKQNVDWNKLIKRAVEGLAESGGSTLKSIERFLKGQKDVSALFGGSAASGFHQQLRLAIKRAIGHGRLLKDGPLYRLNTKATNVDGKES
| Sequence | E-score |
| --- | --- |
| AAGACAGG | -0.242 |
| GCTGGGGA | -0.17 |
| TACATACA | -0.0327 |
| ACAAGGCT | -0.0261 |
| CTAAGCAC | 0.00441 |
| GGAAAAAA | 0.0857 |
| ACACTCGC | 0.0665 |
| CAGTTGGG | -0.167 |
| ACGCTTTG | 0.157 |
| CCTAAGAC | -0.146 |
| CATGGTTA | -0.0524 |
| TATGACGA | 0.00417 |
| ATCTCATG | 0.0155 |
| ATCTCAAA | -0.0116 |
| AGCGAGGG | -0.0798 |
| CGATGTTA | -0.0679 |
| GAGCGTGC | 0.0803 |
| ACTATGAC | -0.0159 |
| CTCGATGA | 0.0217 |
| CAGCCCTG | -0.113 |
| AGTTACGC | 0.153 |
| GCCCGGTA | 0.166 |

Repeated from above (series 1):
| target | fold induction |
| --- | --- |
| PhoP, residues 12 14 15 18 19 VGHWL (Escherichia coli, UniProt P23836) | 3.62 |
| PhoP, residues 12 14 15 18 19 NFFVT (Escherichia coli, UniProt P23836) | 15.4 |
| PhoP, residues 12 14 15 18 19 LHHYF (Escherichia coli, UniProt P23836) | 7.88 |
| PhoP, residues 12 14 15 18 19 TPWTL (Escherichia coli, UniProt P23836) | 2.13 |
